Assay results pooled from the literature.
Numbered parts are unrelated; each lists some results of a single study. Positions count from the first letter of the parent shown.

Block 1
Target: CCNF, cyclin fold, Cln2 fusion (human)
Technique: yeast growth competition, sequencing
Matrix: yeast
Notes: strong parent motif
Reference: not given
Reading: higher = stronger binding
Starting sequence: GMNC docking peptide (human); KNAKRNLSSEFAN
Variant	normalised enrichment score
KTAKRNLSSEFAN [N2T]	1.2
KNAKRNLLSEFAN [S8L]	1.56
KNAKRWLSSEFAN [N6W]	0.757
KNAKRNLSSEFHN [A12H]	0.307
KNATRNLSSEFAN [K4T]	0.495
KNAKRNLSSEFWN [A12W]	0.566
KNAGRNLSSEFAN [K4G]	0.456
KNAKRGLSSEFAN [N6G]	0.582
KNAKRNLSSEFCN [A12C]	0.725
KNPKRNLSSEFAN [A3P]	-0.141
KNAKRNHSSEFAN [L7H]	0.375
KNAKRNLTSEFAN [S8T]	0.486
KRAKRNLSSEFAN [N2R]	1.25
KNAKRNLSSRFAN [E10R]	1.15
KNAARNLSSEFAN [K4A]	0.597
KNAKRNLSSEFDN [A12D]	0.858
KNAKRNLCSEFAN [S8C]	0.668
KNAKRNLSSEFLN [A12L]	0.718
KNAKRNLQSEFAN [S8Q]	0.85
KNAKRNLSNEFAN [S9N]	0.714
KNAKINLSSEFAN [R5I]	0.548
KNAKHNLSSEFAN [R5H]	0.259
KNAKDNLSSEFAN [R5D]	-0.14
KNARRNLSSEFAN [K4R]	1.96
KNAKRNLSMEFAN [S9M]	1.61

Block 2
Target: Histone acetyltransferase KAT6A, both winged helices, GST fusion (KAT6A, Homo sapiens, UniProt Q92794, residues 1-181)
Technique: protein binding microarray
Molecule type: double-stranded DNA, one strand shown
Matrix: in vitro
Concentration: not given
Notes: 8-mer, flanks averaged, mean of 2 arrays, mostly near background
Reference: not given
Reading: higher = stronger binding
Construct (chain): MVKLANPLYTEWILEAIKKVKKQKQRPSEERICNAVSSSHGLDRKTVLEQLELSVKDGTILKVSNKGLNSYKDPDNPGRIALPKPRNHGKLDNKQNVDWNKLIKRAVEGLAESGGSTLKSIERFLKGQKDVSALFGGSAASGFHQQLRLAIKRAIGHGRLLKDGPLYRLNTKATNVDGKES
Oligonucleotide	E-score
CCAGTCCC	-0.168
CAATGAGG	-0.121
CTATATGA	-0.0859
AGCAGCCG	0.104
CCTCGTCC	-0.149
CGTTTAAG	0.0668
TAGGTAAA	-0.115
TGCCCGCA	0.102
CAGGCCTG	-0.218
CAGGGCGC	0.276
CCCATAGC	-0.135
GTGGTCCA	-0.219
CCTGTTAA	-0.194
CTGTGAAA	-0.0453
ACCAGTGG	-0.163
CCTGGACA	-0.0858
ACACGTAA	-0.0501
ATTCTTCC	-0.052
GTCCCGCA	0.275
ATTCGTAA	-0.104
AGTACCAC	-0.0592
GTGCCCGA	0.0856
AAGGCCTT	-0.117
CGAATGCG	0.294
ATGGCGGA	0.146

Block 3
Target: CRIPT, C-terminal peptide
Technique: DHFR complementation, deep sequencing
Matrix: yeast
Notes: single substitutions, model-inferred values
Reference: wild type
Reading: higher = weaker binding
Starting sequence: ERBIN, PDZ domain 1 (human); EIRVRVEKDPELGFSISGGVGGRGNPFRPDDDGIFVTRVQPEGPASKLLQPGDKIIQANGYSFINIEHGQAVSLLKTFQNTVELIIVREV; partner TKNYKQTSV
Variant	binding free energy change [kcal/mol]
Q40W	0.578
D9Y	0.582
I16Y	1.8
F35W	0.276
N80I	0.186
I55S	0.97
D32R	0.439
V4K	0.92
T77Q	0.0161
R38P	1.4
S46A	-0.0585
A71M	0.904
I64T	0.0254
F14H	1.04
D32T	0.232
G24K	1.22
V39N	1.05

Block 4
Target: Sal-like protein 4, full length isoform B (SALL4, Homo sapiens, UniProt Q9UJQ4-2, residues 1-616)
Technique: universal PBM
Molecule type: double-stranded DNA, one strand shown
Matrix: in vitro
Concentration: not given
Notes: 8-mer, flanks averaged, mean of replicates
Reading: higher = stronger binding
Oligonucleotide	E-score
GATTGGAA	-0.0253
ATCTTGGA	0.00395
CCCCCCGG	-0.463
GATAACGC	-0.0436
ACTTGCGC	-0.167
ATGGGAAA	0.0334
CCATCGCG	-0.0534
GATGATCC	-0.0319
GCAAGAAC	0.0839
GCCGCAAC	-0.117
ACGCGCCT	-0.0995
CCCCTACC	-0.225
GAGTCAAC	0.00201
GCAGGGCC	-0.381
CCACTGCA	-0.0329
CCACCTGA	-0.0258
ACATTCTA	0.202
ACCAAACA	0.238
ACAGCTTC	-0.0142
GTGCTTAA	0.0871
CGTTAGAA	0.121
CTGAGTCA	-0.175
AATTTCCA	0.229
AGGAAACC	-0.17

Block 5
Target: ABI1, truncated, D143A, DHFR fusion (Arabidopsis thaliana)
Technique: DHFR PCA, deep sequencing
Matrix: yeast
Notes: methotrexate growth selection, single substitutions
Added: (+)-ABA 0.0091 µM
Reference: wild-type fitted maximum
Reading: higher = stronger binding
Starting sequence: PYL1, truncated, DHFR fusion (Arabidopsis thaliana); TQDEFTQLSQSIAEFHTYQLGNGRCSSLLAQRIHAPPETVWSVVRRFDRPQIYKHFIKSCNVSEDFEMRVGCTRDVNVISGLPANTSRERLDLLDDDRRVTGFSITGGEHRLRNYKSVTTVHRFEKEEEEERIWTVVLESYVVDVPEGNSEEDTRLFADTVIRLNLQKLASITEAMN
Variant	relative binding score [%]
G107T	1.63
V70R	1.77
I57W	-2.75
T173H	-11.3
F56E	4.18
E174N	-1.63
A158C	74.7
A84K	9.76
S171D	37.8
L112W	6.22
C25R	-1.63
V145G	-1.41
H34P	2.3
A170V	-0.646
T86D	3.88

Block 6
Target: RNA binding protein fox-1 homolog 2, RRM domain, GST-SBP tag (RBFOX2, Homo sapiens, UniProt O43251-10, residues 100-194)
Technique: RNA Bind-n-Seq
Molecule type: RNA
Matrix: in vitro
Concentration: 365 nM
Notes: natural RNA segment, single round, ends assumed
Reference: no-protein control
Reading: higher = stronger binding
Construct (chain): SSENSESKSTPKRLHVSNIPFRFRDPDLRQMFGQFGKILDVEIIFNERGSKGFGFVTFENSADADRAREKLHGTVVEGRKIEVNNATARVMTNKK
Oligonucleotide	RBNS enrichment (R)
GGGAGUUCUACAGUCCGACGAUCUCCUUUUGGAGUUUCUUCUCCACAUUAUCUUUGUUCCUGGGGAAUAAAAACUACCAUUGGACCUAGAUUUGGGCUCCUGUACUGUCUUCACCUGCUCUUGUCCACCCUACUGGAAUUCUCGGGUGCCAA	1.03
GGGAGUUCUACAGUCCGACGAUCAGAGUGACUGGGUGUGCCAAAAUAUGCCCAGGGUCCUGCCCUCAGCACUAGAUUUAAUGGGGCCAAGAGGGUCCAAACCCCUUGCUAACAUACCACUUCUUUGUUUAACUUGGAAUUCUCGGGUGCCAA	0.269
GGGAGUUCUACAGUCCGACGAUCAGCCUCGUAUUUCCCCAUUGAGAGUUUUGUUCCAAGGAAUAUGAAGUGAGACAUAUGGGUGAGUCAUAAUAAUCAAAAUAAUUUAUGAAGAGCUGGGUCUGCAAUAGCUAUGGAAUUCUCGGGUGCCAA	0.47
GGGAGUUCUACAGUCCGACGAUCCUUCUGAGCUUGGAUUAGAGAAAGCUCUUAACUCCAGCCACUGUCAGAGGGAGUGUGGAGGGAGGGACCCGGCCUCUCUGUUGUCAAAUUGAGGCCUCCAUGUGGGAAGUUGGAAUUCUCGGGUGCCAA	0.618
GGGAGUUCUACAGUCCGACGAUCGCUCUCUAGGCCUGACUGCCACCAGAGUCCUCUUACCACCUGCAGUCUGCCACAAAGAUGCCAUAUCAACUCCUCUCUUCCCAAAACUAAACAGGAUCUAUCAUGGUGGCUGGAAUUCUCGGGUGCCAA	0.478
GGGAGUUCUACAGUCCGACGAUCUGUGUGGCUCAAGGGUCAUGUAUAGUUUGUGGAAUUUUUCCAAUUAAAUGUCUUGCUUACAGUGGUGUUGCCCCGACUCCAGAUCAGCCUGGGCCACCUUGGGAAGCCAUUGGAAUUCUCGGGUGCCAA	0.385
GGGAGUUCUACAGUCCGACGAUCCUGGGUAAUUUGAUGGAAUAUUUUACGUUUGAUUAAAUCAAAACAGUAAACACUCUCUUAGAUACUGUGUUGGAAGUAGUUAUUCUCCCAUAGUUUAAUGAAACUUGAAAUGGAAUUCUCGGGUGCCAA	0.589
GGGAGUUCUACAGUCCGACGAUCGCAUUCAGUGGCCUAUCUCCAGAUUGUCUGAUUUCUGAAUGUAAAGUUGUUGUGUUUUUUUUUAAAUAGUAGUUUGUAGUAUUUUAAAGAAAGAACAGAUCGAGUUCUAAUGGAAUUCUCGGGUGCCAA	0.71
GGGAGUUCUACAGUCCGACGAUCUGUAAAAAUUUGUGGGGAGUAGGCUCCAGGAAGAGCCAGCAUCCCUGCCCCCGUUUCCCACCGGGGACCUGUACAGAGAUUUUUUUCUACAUUUUUAUUUUUUGUCUCAGUGGAAUUCUCGGGUGCCAA	0.47
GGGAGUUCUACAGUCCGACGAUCUUUUUCAUAGUGAAAUUGUGUUUCAGGCUUAGUCUGACCUUUCUGGUUUCUUCAUUUUCUUCCAUUACUUAGGAAAGAGUGGAAACUCCACUAAAAUUUCUCUGUGUUGUUGGAAUUCUCGGGUGCCAA	0.297
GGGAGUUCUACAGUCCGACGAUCUCAUACUCCAAUCAUAACCUUGUAUAUUAUGCAGUCAUUUUGGUUUUCGCGGACGCGCCUACCUAAGUACCAUUUACAGAAAGUGACUCUGGCUGUCAUUAUUUUGUUUAUGGAAUUCUCGGGUGCCAA	0.408
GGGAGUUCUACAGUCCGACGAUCCAACCCAAGGGACCUCUCACCUUUUGCUGAGCUUCAAUCAGGAAGCUAUUUGCCUGGCUCCAGCAGAUGAUGAGAUAAUGAGGUAGUGGGUUUUUUAUUACUGUUCCAUUUGGAAUUCUCGGGUGCCAA	0.668

Mixed results
Substance	target	assay	system	conditions	scale	measurement	value
PhoQ, residues 284 288 289 292 302 303 SQSLSM	PhoP, residues 12 14 15 18 19 LHHVQ (Escherichia coli, UniProt P23836)	Sort-seq, refers to: YFP reporter	E. coli	PhoQ-PhoP variant library, added: 10 µM Mg2+	reference: high Mg2+ state, higher = stronger signaling	fold induction	0.856

Excerpt of the above (block 3):
Variant	binding free energy change [kcal/mol]
Q40W	0.578
D9Y	0.582
I16Y	1.8
F35W	0.276
N80I	0.186
I55S	0.97
D32R	0.439
V4K	0.92
T77Q	0.0161
R38P	1.4
S46A	-0.0585
A71M	0.904
I64T	0.0254
F14H	1.04
D32T	0.232
